# Results from different studies.
# Compare with care: the assays were run in different laboratories. “And” joins repeats or separate records; there may be more than shown. ± gives the spread as reported.
# Spike glycoprotein: Spike glycoprotein (Severe acute respiratory syndrome coronavirus 2, UniProt P0DTC2)
# gag-pol K653N reverse transcriptase: Gag-Pol polyprotein, reverse transcriptase (gag-pol, Human immunodeficiency virus type 1 group M subtype B, UniProt P04585, K653N)
# gag-pol protease: Gag-Pol polyprotein, protease (gag-pol, Human immunodeficiency virus type 1 group M subtype B, UniProt P04585)
Molecule,tested on,assay,system,setting,quantity,value
CC[C@H](C)[C@H](NC(=O)[C@H](CC(C)C)NC(=O)[C@H](Cc1c[nH]c2ccccc12)NC(=O)[C@H](CCC(N)=O)NC(=O)[C@@H](NC(=O)[C@H](Cc1ccccc1)NC(=O)[C@H](C)NC(=O)[C@H](CCCCNC(=O)COCCOCCNC(=O)COCCOCCNC(=O)CC[C@H](NC(=O)CCCCCCCCCCCCCCCCCCC(=O)O)C(=O)O)NC(=O)[C@H](CCC(N)=O)NC(=O)[C@H](C)NC(=O)[C@@H](NC(=O)[C@H](CCCCN)NC(=O)[C@H](CC(=O)O)NC(=O)[C@H](CC(C)C)NC(=O)C(C)(C)NC(=O)[C@@H](NC(=O)[C@H](CO)NC(=O)[C@H](Cc1ccc(O)cc1)NC(=O)[C@H](CC(=O)O)NC(=O)[C@H](CO)NC(=O)[C@@H](NC(=O)[C@H](Cc1ccccc1)NC(=O)[C@@H](NC(=O)CNC(=O)[C@H](CCC(=O)O)NC(=O)C(C)(C)NC(=O)[C@@H](N)Cc1ccc(O)cc1)[C@@H](C)O)[C@@H](C)O)[C@@H](C)CC)[C@@H](C)CC)C(C)C)C(=O)N[C@@H](C)C(=O)NCC(=O)NCC(=O)N1CCC[C@H]1C(=O)N[C@@H](CO)C(=O)N[C@@H](CO)C(=O)NCC(=O)N[C@@H](C)C(=O)N1CCC[C@H]1C(=O)N1CCC[C@H]1C(=O)N1CCC[C@H]1C(=O)N[C@@H](CO)C(N)=O,,measured: anti-drug antibodies,healthy human subjects,"1.5 mg multiple ascending, baseline, evaluable subjects",subjects ADA-positive at baseline,0%
COc1ccc(C[C@@H]2c3cc(Oc4cc(C[C@@H]5c6cc(O)c(OC)cc6CCN5C)ccc4O)c(OC)cc3CCN2C)cc1,Spike glycoprotein,"binding, BLI",,,Kd,32.5 µM
Nc1ncnc2c([C@@H]3N[C@H](CO)[C@@H](O)[C@H]3O)c[nH]c12,Marburg virus,viral replication,"HeLa, Musoke",12.5 µM,inhibition,90%
C=C1[C@@H]2CC[C@H]3[C@]4(C)C[C@H](O[C@@H]5O[C@H](CO)[C@@H](OS(=O)(=O)O)[C@H](OS(=O)(=O)O)[C@H]5OC(=O)CC(C)C)C[C@@H](C(=O)O)[C@H]4CC[C@]3(C2)[C@H]1O,"ADP/ATP translocase 4 (SLC25A31, Homo sapiens, UniProt Q9H0C2, A30V)",ADP/ATP exchange,yeast mitochondria,human ANT isoforms,IC50 difference between isoforms,no effect
C[C@H](Cn1cnc2c(N)ncnc21)OCP(=O)(O)O,gag-pol K653N reverse transcriptase,inhibitor,HIV-1,,IC50,1.065 ± 0.00121 µM
COc1ccc(S(=O)(=O)N(CC(C)C)C[C@@H](O)[C@H](Cc2ccccc2)NC(=O)O[C@H]2CCC[C@]23CCO[C@H](c2cccc(OC)c2)C3)cc1,gag-pol protease,"enzyme activity, inhibitor",,,Ki,0.14 µM
Cn1cnc(Cn2c(=O)[nH]/c(=N\c3cc4cn(C)nc4cc3Cl)n(Cc3cc(F)c(F)cc3F)c2=O)n1,,,"human, severe renal impairment","oral, 375 mg, vessel puncture site haemorrhage TEAE, Mild severity",patients with adverse event,0%
NCCc1c(SSc2[nH]c3cc(Br)ccc3c2CCN)[nH]c2cc(Br)ccc12,"KCNA4 (Homo sapiens, UniProt P22459)","inactivation time constant, whole-cell patch clamp",CHO-K1,,Kd,1.6 ± 0.7 µM
Cc1cn([C@H]2C[C@H](N=[N+]=[N-])[C@@H](CO[P@](=O)(O)O[P@](=O)(O)OP(=O)(O)O)O2)c(=O)[nH]c1=O,gag-pol K653N reverse transcriptase,inhibitor,HIV-1,,IC50,0.563 µM
AaH II scorpion toxin,rat Nav1.2a/Kv2.1 VSD IV chimera R1629A/L1630A,two-electrode voltage clamp,Xenopus oocytes,22 °C,Kd,0.193 ± 0.042 µM
CC(=O)O[C@@H]1[C@H](N)[C@@H](OP(=O)(O)O)[C@@]2(C(=O)O)CS[C@@](O)(C(N)=O)[C@@H]1O2,"DNA-directed RNA polymerase subunit beta' / DNA-directed RNA polymerase subunit beta (rpoC/rpoB, Escherichia coli, UniProt P0A8T7+P0A8V2)","binding to elongation complex, 6-MI fluorescence titration",wild-type RNAP,3′-deoxy RNA 3′-end Uracil,Kd,2.5 ± 0.2 µM
COc1ccc(S(=O)(=O)N(CC(C)C)C[C@@H](O)[C@H](Cc2ccccc2)NC(=O)O[C@H]2CCC[C@@]23CCO[C@@H](c2ccccc2)C3)cc1,gag-pol protease,"enzyme activity, inhibitor",,,Ki,1.34 µM
CCC(N)=O,"Urea transporter 1 (Homo sapiens, UniProt Q13336)",urea transport inhibition,,with: thiourea,Ki,30000 µM
CNC(=O)[C@@H](NC(=O)[C@H](CC(C)C)[C@H](O)C(=O)NO)C(C)(C)C,snake venom metalloproteinase,"proteolytic activity, inhibitor","Daboia russelii, venom GA",with: azocasein,IC50,2.44 µM and 2.16 µM and 2.39 µM
Clc1cc(N2C[C@@H]3CN[C@@H]3C2)cnc1Cl,"Neuronal acetylcholine receptor; alpha4/beta2 (Rattus norvegicus, UniProt P09483+P12390)",,rat,,Ki,0.0013 ± 0.0004 µM
CO[C@H]1/C=C/O[C@@]2(C)Oc3c(C)c(O)c4c(O)c(c(/C=N/N5CCN(C)CC5)c(O)c4c3C2=O)NC(=O)/C(C)=C\C=C\[C@H](C)[C@H](O)[C@@H](C)[C@@H](O)[C@@H](C)[C@H](OC(C)=O)[C@@H]1C,Spike glycoprotein,"binding, BLI",,,Kd,117 µM
N[C@@H](C[C@]1(C(=O)O)C[C@H]2OC[C@@H](O)[C@@H](O)[C@H]2O1)C(=O)O,"Glutamate receptor ionotropic, kainate 3 (Rattus norvegicus, UniProt P42264, F446Y/T520A)","ligand displacement, radioligand",,,Ki,0.26 µM
COc1ccc(S(=O)(=O)N(CC(C)C)C[C@@H](O)[C@H](Cc2ccccc2)NC(=O)O[C@@H]2CCC[C@]23CCO[C@H](c2cc(OC)cc(OC)c2)C3)cc1,gag-pol protease,"enzyme activity, inhibitor",,,Ki,0.133 µM
CC[C@H](C)[C@H](NC(=O)[C@H](CC(C)C)NC(=O)[C@H](CO)NC(=O)[C@H](CCC(=O)O)NC(=O)[C@@H](NC(=O)[C@H](CC(C)C)NC(=O)[C@H](CO)NC(=O)[C@@H](NC(=O)[C@H](Cc1ccc(O)cc1)NC(=O)[C@H](CS)NC(C)=O)[C@@H](C)O)[C@@H](C)CC)C(=O)N[C@@H](CCCNC(=N)N)C(=O)N[C@@H](CCC(=O)O)C(=O)N[C@@H](CO)C(=O)N[C@@H](CCC(N)=O)C(=O)N[C@@H](CCC(=O)O)C(=O)N[C@@H](CCC(N)=O)C(=O)N[C@@H](CCC(N)=O)C(=O)N[C@@H](CCC(=O)O)C(=O)N[C@@H](CCCCN)C(=O)N[C@@H](CC(N)=O)C(=O)N[C@@H](CCC(=O)O)C(=O)N[C@@H](CCC(N)=O)C(=O)N[C@@H](CCC(=O)O)C(=O)N[C@@H](CC(C)C)C(=O)N[C@@H](CCCNC(=N)N)C(=O)N[C@@H](CCC(=O)O)C(=O)N[C@@H](CC(C)C)C(=O)N[C@@H](CC(=O)O)C(=O)N[C@@H](CCCCN)C(N)=O,"Envelope glycoprotein gp160, gp41 hydrophobic pocket (env, Human immunodeficiency virus type 1 group M subtype B, UniProt P04578)",,HIV-1,,Ki,3 ± 0.33 µM

# A few entries again:
Molecule,tested on,assay,system,setting,quantity,value
N[C@@H](C[C@]1(C(=O)O)C[C@H]2OC[C@@H](O)[C@@H](O)[C@H]2O1)C(=O)O,"Glutamate receptor ionotropic, kainate 3 (Rattus norvegicus, UniProt P42264, F446Y/T520A)","ligand displacement, radioligand",,,Ki,0.26 µM
COc1ccc(C[C@@H]2c3cc(Oc4cc(C[C@@H]5c6cc(O)c(OC)cc6CCN5C)ccc4O)c(OC)cc3CCN2C)cc1,Spike glycoprotein,"binding, BLI",,,Kd,32.5 µM
